Measurements of several laboratories.
A part holds a random share of what one study measured.

Series 1
Target: RNA binding protein fox-1 homolog 2, RRM domain, GST-SBP tag (RBFOX2, Homo sapiens, UniProt O43251-10, residues 100-194)
Technique: RNA Bind-n-Seq
Molecule type: RNA
Matrix: in vitro
Concentration: 365 nM
Notes: natural RNA segment, single round, ends assumed
Relative to: no-protein control
Reading: higher = stronger binding
| Oligonucleotide | RBNS enrichment (R) |
| --- | --- |
| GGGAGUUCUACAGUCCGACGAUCGAAGAGGAAGAAGAGGAAGAAUAGGAAGGCAGACUAGAAACCGGAGCACCCAUCAAGUCUGUCAGACUCACGGGGUGAGGGGUGGCCUGUUUGGAUUCUGUUAGGGAGGGUGGAAUUCUCGGGUGCCAA | 0.954 |
| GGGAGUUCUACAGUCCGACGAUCAAAUUAAGAGUGUAAGCAGUUGUGAAUCAUUACAAGCAGUCUGGGAUAACUAACUCCUAGGGAUAACCAUUUCUAUCCUGUUCCAAAGUCUUAUUUUAUAGUUUGAAAAGUGGAAUUCUCGGGUGCCAA | 0.492 |
| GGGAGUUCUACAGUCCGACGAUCAAGGUGAAUAGCACAGGUUAGGGUGUGUGCCACACCCCAUGCACCUCAGGGCCAAGCGGGGGCGUGGCUGGCCUUUCAGGUCCAGGCCAGUGGGCCUGGUAGCACAUGUCUGGAAUUCUCGGGUGCCAA | 0.59 |
| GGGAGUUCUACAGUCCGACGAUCUUUGGCUUUGCUGCUCUGAUGAAGUUGCUCAGAUGAGCUGUGGCUGCCAGAGAACAAGGUGUAUGUUCUUGGGAAGCAGGUCUAUGCCAGUGGGCUGUUUUGCCUUGUUUUGGAAUUCUCGGGUGCCAA | 3.27 |
| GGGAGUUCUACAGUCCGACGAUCGUGGUUACUUUUUAUAAUGUGAAAUGGAUAAUGAGCGUAUUUAAAAUAAAGCAGAGGUUAAUGAGAUACCUGUAUUUGUGAGAAAAAUUUUAAAUACUUUCCUACAGUUCUGGAAUUCUCGGGUGCCAA | 0.739 |
| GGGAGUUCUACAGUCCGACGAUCUACUGACAGUUCAAAUGACUCUCCUUUUUUGUUCGUUAGUAACAAUCUUCAUUUGACACCUUAAUACAUUUCUGACUGUUCUUAAAACAGUGGGGAUGCCUAUAUUUUCCUGGAAUUCUCGGGUGCCAA | 0.368 |
| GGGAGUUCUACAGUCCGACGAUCGGUGUGCACUAGAAAACCCAGUGGUUGUUUUUAUUAUUGACUGUAGUCCAGCAUCACGGAGAAAGGCCAAUCCUCUUAGGAGCAUUGGACAGCUCAACCAUGUUGUCAUCUGGAAUUCUCGGGUGCCAA | 0.423 |
| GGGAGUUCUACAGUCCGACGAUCCAUUUUGCUACCAGUUUCAUUGAAUUGAUUUAAAAAUAAAUAAAUAAUAAAAUUAUUUCUGAUGAUGAAAAUUCCUUGUUUUUUUUUUUAAUAACAGAACUUUGGACAAAUGGAAUUCUCGGGUGCCAA | 1.16 |

Series 2
Target: Prothrombin, mature alpha-thrombin (F2, Homo sapiens, UniProt P00734)
Technique: aptamer microarray, sandwich
Molecule type: DNA with 2'F-ANA
Matrix: in vitro
Concentration: 200 nM
Notes: whole 15-mer aptamer, many near background
Together with: Cy3 exosite-II aptamer, 400 nM
Reading: higher = stronger binding
Oligonucleotide: GGTTGGTGTGGTTGG
| Modification | mean fluorescence intensity |
| --- | --- |
| 2'F-ANA at 1 4 6 7 8 10 11 13 14 15 | 45.7 a.u. |
| 2'F-ANA at 5 6 7 8 10 14 | 45.3 a.u. |
| 2'F-ANA at 1 2 5 6 12 13 14 15 | 98 a.u. |
| 2'F-ANA at 2 5 6 7 10 12 | 49.8 a.u. |
| 2'F-ANA at 1 3 5 8 9 10 11 12 15 | 52.9 a.u. |
| 2'F-ANA at 1 3 4 7 8 9 10 11 13 15 | 61 a.u. |
| 2'F-ANA at 1 2 5 7 8 | 62.1 a.u. |
| 2'F-ANA at 1 4 5 8 10 14 15 | 46.4 a.u. |
| 2'F-ANA at 2 3 4 5 6 12 | 202 a.u. |
| 2'F-ANA at 1 4 5 6 8 9 13 14 | 79.1 a.u. |
| 2'F-ANA at 3 5 7 8 10 11 | 61.9 a.u. |
| 2'F-ANA at 1 3 4 5 6 7 14 15 | 47.6 a.u. |
| 2'F-ANA at 1 4 6 8 9 11 13 | 78.1 a.u. |
| 2'F-ANA at 2 3 4 5 6 10 12 14 | 47.9 a.u. |
| 2'F-ANA at 2 3 5 7 11 12 14 | 75.3 a.u. |
| 2'F-ANA at 2 4 6 7 8 | 409 a.u. |

Series 3
Target: Ras GTPase-activating protein-binding protein 1, full length (G3BP1, Homo sapiens, UniProt Q13283)
UniProt Q13283, sequence (whole entry, looked up): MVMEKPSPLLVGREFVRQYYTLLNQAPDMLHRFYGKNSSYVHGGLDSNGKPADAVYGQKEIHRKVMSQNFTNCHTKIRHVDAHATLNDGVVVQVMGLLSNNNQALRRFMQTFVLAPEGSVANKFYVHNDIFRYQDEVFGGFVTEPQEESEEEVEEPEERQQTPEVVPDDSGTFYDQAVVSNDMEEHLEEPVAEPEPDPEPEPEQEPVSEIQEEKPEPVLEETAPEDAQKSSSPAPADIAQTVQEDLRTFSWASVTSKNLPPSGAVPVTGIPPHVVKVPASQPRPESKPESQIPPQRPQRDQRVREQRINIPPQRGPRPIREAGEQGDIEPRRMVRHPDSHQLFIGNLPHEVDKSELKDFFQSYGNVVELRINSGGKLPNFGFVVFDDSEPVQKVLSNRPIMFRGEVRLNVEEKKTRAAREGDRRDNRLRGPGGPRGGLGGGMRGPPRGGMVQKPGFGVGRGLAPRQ
Technique: RNA Bind-n-Seq
Molecule type: RNA
Matrix: in vitro
Concentration: 200 nM
Notes: whole 134-nt RNA, ends assumed
Together with: 150 mM LiCl
Relative to: input library
Reading: higher = stronger binding
Library: 7-deaza-guanosine replaces G
| Oligonucleotide | log2 enrichment |
| --- | --- |
| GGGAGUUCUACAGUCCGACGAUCCUGUGCUACACAUCGUAUGUACCGAAUCGGGGAAAAAGGGGUUUUUUUGGGGUUUUUGGGGAAAGUAUUAUGUUACGCCGUUCGGAUCUGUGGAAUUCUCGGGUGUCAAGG | -1.57 |
| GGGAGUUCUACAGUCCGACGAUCGCAGGAAGUAAAAACAAAUGGAAAUGCUUCGGAUAGUGGCAGGGGUGGGGGUUGCUAAGGAAAGAAAGGGAUGGGAGUGGGUAAAGAGUUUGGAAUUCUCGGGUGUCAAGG | 0.0166 |
| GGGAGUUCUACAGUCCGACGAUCGCAGGAAGUAAAAACAAAUGGAAAUGCUUCGGAUAGUGGCAGGGGUGGGGGUUGCUAAGGAAAGGGUGGGAUGGAAGUGGGUAAAGAGUUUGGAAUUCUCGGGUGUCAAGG | -0.0453 |
| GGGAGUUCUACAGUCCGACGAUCAGUCCUGUGCUACACAUCGUAUGUACCGAAUCGGGGUUUUUUUGGGGUGGGGUGGGGAAAGUAUUAUGUUACGCCGUUCGGAUCUGCACUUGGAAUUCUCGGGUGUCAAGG | 0.351 |
| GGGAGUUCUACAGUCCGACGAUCCUGUGCUACACAUCGUAUGUACCGAAUCGGGGAAAAAAAGGAAAAAAAGGGGAAAAAAAGGAAAGUAUUAUGUUACGCCGUUCGGAUCUGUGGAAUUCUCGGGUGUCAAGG | 0.0215 |
| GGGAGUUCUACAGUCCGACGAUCCAAGUCCUGUGCUACACAUCGUAUGUACCGAAUCGGGAAAAAAAGGGUGGGUGGGAAAGUAUUAUGUUACGCCGUUCGGAUCUGCACUUCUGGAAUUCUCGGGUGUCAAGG | -0.181 |
| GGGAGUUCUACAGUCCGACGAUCUUCAAAGCGUUCGAAUGAGGAGACUGAUGACUAUGGGAAGGCGCAGGUAGCCAAAAGCAGCAGCAAGGAAUCCAGGUCAUCCAAGCUCCAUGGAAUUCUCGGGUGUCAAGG | -1.91 |
| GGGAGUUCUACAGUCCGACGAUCAAGUCCUGUGCUACACAUCGUAUGUACCGAAUCGGGUUUUUUUGGGUGGGUUUGGGAAAGUAUUAUGUUACGCCGUUCGGAUCUGCACUUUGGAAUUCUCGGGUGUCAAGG | -0.886 |

Series 4
Target: Phosphate system positive regulatory protein PHO4, full length, GST-tagged (PHO4, Saccharomyces cerevisiae, UniProt P07270, residues 1-312)
Technique: competition protein-binding microarray
Molecule type: double-stranded DNA, one strand shown
Matrix: in vitro
Concentration: 2 µM
Notes: whole 60-bp probe, lowest competitor level
Together with: Cbf1 competitor, 0.05 µM
Reading: higher = stronger binding
Target sequence (chain): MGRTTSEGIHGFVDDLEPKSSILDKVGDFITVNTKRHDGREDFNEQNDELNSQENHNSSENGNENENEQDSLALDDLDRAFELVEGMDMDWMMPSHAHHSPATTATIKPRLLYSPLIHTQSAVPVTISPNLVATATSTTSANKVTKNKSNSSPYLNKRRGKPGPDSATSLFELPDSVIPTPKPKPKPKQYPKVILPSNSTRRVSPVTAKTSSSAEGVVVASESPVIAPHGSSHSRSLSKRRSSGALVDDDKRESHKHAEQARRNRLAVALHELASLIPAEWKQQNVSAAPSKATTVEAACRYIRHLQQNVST
| Oligonucleotide | fluorescence intensity [a.u.] |
| --- | --- |
| CATACCCAACCTTTTCACGTGAAGTAAGATATTTGTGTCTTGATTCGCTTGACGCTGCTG | 11500 |
| CGAAACATAACGATAAACGTGGTGAAGTTTTCGATTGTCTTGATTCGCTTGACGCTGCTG | 11600 |
| CTAACGAAGGTTTGGTAAGTGGGTGACAAGCCAAGTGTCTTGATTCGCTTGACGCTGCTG | 3820 |
| TTGCCGTTGCAAGTGAACGTGCAAATGTATTTATATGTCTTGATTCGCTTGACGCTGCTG | 11800 |
| AAATTACTAAGTTTTCACGTGACGTACCCCGTATGAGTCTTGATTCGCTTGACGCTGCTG | 11200 |
| GTCTTGTCTCATTGCTGGGTGGGTGTCCCCACTTCAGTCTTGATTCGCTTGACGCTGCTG | 5600 |
| TGCTATGTCCCTTCGACCGTGATGGAATGGGAGTGGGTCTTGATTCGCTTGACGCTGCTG | 5120 |
| TTTGACCTCTTCGACCACGTGTGTTAGCTGGTCATTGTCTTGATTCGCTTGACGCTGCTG | 19500 |
| AAAGCGGTAATTTTTCACGTGGGATCAAATATCTATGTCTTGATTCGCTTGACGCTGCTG | 13500 |
| ACCATACACTATCAAGCAATATTATACTTGTTCTTTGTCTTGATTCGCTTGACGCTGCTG | 4770 |
| AAGATTCAGCCTTAGCACGCACCAATTCTTGTTCCAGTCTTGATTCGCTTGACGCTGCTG | 9300 |
| TATTAGATAACTTAGCACGTGAAAAAGAAACGTTTTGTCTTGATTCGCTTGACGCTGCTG | 16500 |
| GATGACATTATGGTTAACATGATAAAGGATGAATTGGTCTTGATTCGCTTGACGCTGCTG | 4880 |
| CTGAAGTTGACCGGCCACGGGATTCGTCAAGTATGTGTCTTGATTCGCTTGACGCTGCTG | 8150 |
| CATACCCAACCTTGCACCGTGGGTGAAGATATTTGTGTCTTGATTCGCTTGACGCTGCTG | 8700 |
| CGGGGTTAAGTTTGTCACTTTACTTGCTTGCAGCAGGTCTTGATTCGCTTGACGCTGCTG | 3160 |
| TGCGCAACAACTTGTATCGTGGGTGTATGTCTAGAAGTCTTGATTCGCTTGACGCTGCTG | 7080 |
| TGCGCAACAACTTGCGGAGTGGGTGTATGTCTAGAAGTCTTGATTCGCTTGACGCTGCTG | 4450 |
| TGCAGAACGCAAAATCGCGTGCGGAAGGAACGAGGAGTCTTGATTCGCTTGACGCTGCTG | 8460 |

Repeated from above (series 1):
| Oligonucleotide | RBNS enrichment (R) |
| --- | --- |
| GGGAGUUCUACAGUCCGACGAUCAAAUUAAGAGUGUAAGCAGUUGUGAAUCAUUACAAGCAGUCUGGGAUAACUAACUCCUAGGGAUAACCAUUUCUAUCCUGUUCCAAAGUCUUAUUUUAUAGUUUGAAAAGUGGAAUUCUCGGGUGCCAA | 0.492 |
| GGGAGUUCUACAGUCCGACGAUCAAGGUGAAUAGCACAGGUUAGGGUGUGUGCCACACCCCAUGCACCUCAGGGCCAAGCGGGGGCGUGGCUGGCCUUUCAGGUCCAGGCCAGUGGGCCUGGUAGCACAUGUCUGGAAUUCUCGGGUGCCAA | 0.59 |
| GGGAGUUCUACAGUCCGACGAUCUUUGGCUUUGCUGCUCUGAUGAAGUUGCUCAGAUGAGCUGUGGCUGCCAGAGAACAAGGUGUAUGUUCUUGGGAAGCAGGUCUAUGCCAGUGGGCUGUUUUGCCUUGUUUUGGAAUUCUCGGGUGCCAA | 3.27 |
| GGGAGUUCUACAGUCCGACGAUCGUGGUUACUUUUUAUAAUGUGAAAUGGAUAAUGAGCGUAUUUAAAAUAAAGCAGAGGUUAAUGAGAUACCUGUAUUUGUGAGAAAAAUUUUAAAUACUUUCCUACAGUUCUGGAAUUCUCGGGUGCCAA | 0.739 |
| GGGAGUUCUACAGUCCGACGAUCUACUGACAGUUCAAAUGACUCUCCUUUUUUGUUCGUUAGUAACAAUCUUCAUUUGACACCUUAAUACAUUUCUGACUGUUCUUAAAACAGUGGGGAUGCCUAUAUUUUCCUGGAAUUCUCGGGUGCCAA | 0.368 |
| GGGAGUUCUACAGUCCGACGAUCGGUGUGCACUAGAAAACCCAGUGGUUGUUUUUAUUAUUGACUGUAGUCCAGCAUCACGGAGAAAGGCCAAUCCUCUUAGGAGCAUUGGACAGCUCAACCAUGUUGUCAUCUGGAAUUCUCGGGUGCCAA | 0.423 |
| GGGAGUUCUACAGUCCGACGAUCCAUUUUGCUACCAGUUUCAUUGAAUUGAUUUAAAAAUAAAUAAAUAAUAAAAUUAUUUCUGAUGAUGAAAAUUCCUUGUUUUUUUUUUUAAUAACAGAACUUUGGACAAAUGGAAUUCUCGGGUGCCAA | 1.16 |
